Measured values of several laboratories.
Lines come from different studies, so protocols differ. “And” joins repeats or separate records; there may be more than shown. Numbers after ± are the reported error. ≈ marks a conversion by molar mass, not a printed value.
UniProt O00238, sequence (whole entry, looked up): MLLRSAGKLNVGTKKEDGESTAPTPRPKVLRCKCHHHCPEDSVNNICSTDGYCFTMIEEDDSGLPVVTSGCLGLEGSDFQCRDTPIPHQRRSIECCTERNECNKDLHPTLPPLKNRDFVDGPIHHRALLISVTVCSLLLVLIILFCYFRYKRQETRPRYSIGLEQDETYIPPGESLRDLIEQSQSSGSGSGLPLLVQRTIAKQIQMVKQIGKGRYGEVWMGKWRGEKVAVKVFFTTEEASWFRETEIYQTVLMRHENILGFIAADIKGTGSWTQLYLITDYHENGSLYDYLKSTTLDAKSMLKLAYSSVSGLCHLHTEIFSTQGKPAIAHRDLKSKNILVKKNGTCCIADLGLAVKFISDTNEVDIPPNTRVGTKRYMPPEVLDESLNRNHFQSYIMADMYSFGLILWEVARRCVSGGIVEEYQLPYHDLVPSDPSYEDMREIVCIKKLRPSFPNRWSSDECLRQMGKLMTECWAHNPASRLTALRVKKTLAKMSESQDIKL

With `Cc1ccc(N2CCC(N(C)C)CC2)cc1C(=O)N[C@H](C)c1cc(-c2cnn(C)c2)nc2ccccc12` the viability was 0.514% and 0.342% (Vero E6; 250 µM).
For `CN(C)CCCNC(=O)[C@@H]1NC(=O)[C@@H]2Cc3ccc(cc3)Oc3cc4cc(c3O)-c3ccc5c(c[nH]c5c3)C[C@@H](NC(=O)C(NC(=O)CCCCCN)c3ccc(O)cc3)C(=O)N[C@H](c3ccc(O)cc3)C(=O)N[C@H]4C(=O)N[C@@H](C(=O)N2C)c2ccc(cc2)Oc2cc1ccc2O` (some centres unmarked), the hemolysis was 0.95% and 0% (human red blood cells; PBS; 4 µg/mL, 1 h, pH 7.4, 37 °C).
For `C#CCOc1ccc(CN[C@@]2(C)C[C@H](O[C@H]3[C@H](Oc4c5cc6cc4Oc4ccc(cc4Cl)[C@@H](O)[C@@H](NC(=O)[C@@H](CC(C)C)NC)C(=O)N[C@@H](CC(N)=O)C(=O)N[C@H]6C(=O)N[C@H]4C(=O)N[C@H](C(=O)N[C@H](C(=O)NCC(N)=O)c6cc(O)cc(O)c6-c6cc4ccc6O)[C@H](O)c4ccc(c(Cl)c4)O5)O[C@H](CO)[C@@H](O)[C@@H]3O)O[C@@H](C)[C@H]2O)cc1OC`, the hemolysis was < 5% (sheep erythrocytes; 512 µg/mL, 37 °C; reference: Triton X-100).
`CC(C)[C@H](NC(=O)[C@H](CCCNC(=N)N)NC(=O)[C@H](Cc1c[nH]c2ccccc12)NC(=O)[C@H](CCCNC(=N)N)NC(=O)[C@H](Cc1c[nH]c2ccccc12)NC(=O)[C@H](Cc1c[nH]c2ccccc12)NC(=O)[C@H](Cc1c[nH]c2ccccc12)NC(=O)[C@H](CCCNC(=N)N)NC(=O)[C@H](Cc1c[nH]c2ccccc12)NC(=O)[C@H](CCCNC(=N)N)NC(=O)CN)C(N)=O` — result for “minimal haemolytic concentration”: 64 µM (mouse red blood cells).
With `Cc1ccc(N2CC(N(C)C)C2)cc1C(=O)N[C@H](C)c1cc(-c2cnn(C)c2)nc2ccccc12` the viability was 90.3% and 85.9% and 92.3% (Vero E6; 250 µM).
`O=C(O)c1cccc(CP(=O)(O)O)n1` has an EC50 of 200 ± 30 mg/L (≈ 921 µM) (H4IIE; membrane integrity, CFDA-AM; 24 h, without 10% FBS).
With `O[Si](CCCN1CCCCC1)(c1ccc(F)cc1)C1CCCCC1` (centres unmarked) the IC50 was 35.3 µM (CHO; cell growth or viability; 72 h).
`CNC(=O)C[C@H](Cc1ccc(F)cc1)NC(=O)[C@@H](Cc1ccc(Cl)cc1Cl)NC(=O)[C@H](N)Cc1ccccc1C#N` has a viability of 0.961 and 1.06 (Huh-7-ACE2; CellTiter-Glo; 0.0977 µM, 48 h, unit not given; reference: DMSO).
Under “minimal haemolytic concentration”, `C[C@H](NC(=O)[C@H](CCCNC(=N)N)NC(=O)[C@H](Cc1c[nH]c2ccccc12)NC(=O)[C@H](CCCNC(=N)N)NC(=O)[C@H](Cc1c[nH]c2ccccc12)NC(=O)[C@H](Cc1c[nH]c2ccccc12)NC(=O)[C@H](Cc1c[nH]c2ccccc12)NC(=O)[C@H](CCCNC(=N)N)NC(=O)[C@H](Cc1c[nH]c2ccccc12)NC(=O)[C@@H](N)CCCNC(=N)N)C(N)=O` is recorded as 64 µM (mouse red blood cells).
The viability of `CNC(=O)C[C@H](Cc1ccc(F)cc1)NC(=O)[C@@H](Cc1ccc(Cl)cc1Cl)NC(=O)[C@H](N)Cc1ccccc1[N+](=O)[O-]` is reported as 0.952 and 1.02 and 0.995 (Huh-7-ACE2; CellTiter-Glo; 3.125 µM, 48 h, unit not given; reference: DMSO).
`O=C(N[C@H](Cc1ccccc1)C(=O)N[C@H](Cc1ccccc1)C(=O)N[C@@H](Cc1ccc(OP(=O)(O)O)cc1)C(=O)O)OCC1c2ccccc2-c2ccccc21` — result for cytotoxicity: “not toxic” (MCF-10A; Alamar Blue; 10 µM).
The viability of `CCn1cc(-c2cc([C@@H](C)NC(=O)c3cc(OCCN(C)C)ccc3C)c3ccccc3n2)c(C(F)(F)F)n1` is reported as -0.192% (Vero E6; 125 µM).
For `CC(C)C[C@H](NC(=O)[C@H](CCC(=O)O)NC(=O)[C@H](Cc1ccccc1)NC(=O)[C@@H]1CCCN1C(=O)CNC(=O)OCc1ccccc1)C(=O)N[C@@H](CCC(=O)O)C(=O)N[C@@H](CCCNC(=N)N)C(=O)N[C@@H](CCCNC(=N)N)C(=O)N[C@@H](Cc1ccccc1)C(=O)N[C@@H](CCCCN)C(=O)N[C@@H](CCC(N)=O)C(=O)N[C@@H](CCC(N)=O)C(=O)O`, the hydrolysis was 7.5% (HCT-116; LC-MS/MS; serum-free DMEM; 20 µM, 2 h).
For `COc1ccc2c3c1O[C@H]1[C@@H](O)C=C[C@H]4[C@@H](C2)N(CC2CCC2)CC[C@@]341`, the logD was 1.39 (octanol/buffer; 1 h, pH 7.4).
`CCOc1ccc(CN2CC[C@H]2C(=O)NC)cc1-c1cccc(C(=O)NC[C@@H]2COC(C)(C)O2)c1` has a viability of 0.884 and 0.975 and 0.902 (Huh-7-ACE2; CellTiter-Glo; 6.25 µM, 48 h, unit not given; reference: DMSO).
For `O=C1C=CC(=O)c2c(O)ccc(O)c21`, the IC50 was 6.42 ± 0.05 µM (MRC-5; cytotoxicity, MTT; 48 h, 10% FBS).
With `CS(C)(=O)=Nc1ccc(-c2ccc(-c3nc4cc(O[C@@H]5CO[C@H]6[C@@H]5OC[C@H]6O)[nH]c4cc3F)cc2)cc1` the inhibition was -13% (BMPR1B (Homo sapiens, UniProt O00238); enzyme activity, inhibitor; 10 µM).
For `Cc1ccc(N2CCC3(CC2)CN(C)C3)cc1C(=O)N[C@H](C)c1cc(-c2cnn(C)c2)nc2ccccc12`, the viability was 0.714% and 1.43% and 1.79% (Vero E6; 500 µM).
For `O=C(Nc1cccs1)c1cccnc1`, the half-life was ~3.8 h (HCT-116; LC-MS/MS; Nam-free DMEM 10% FBS; 100 nM).
For `O=C1CC[C@@]2(O)[C@H]3Cc4ccc(O)c5c4[C@@]2(CCN3CC2CCC2)[C@H]1O5`, the logD was 1.24 (octanol/buffer; 1 h, pH 7.4).
For `NC(=O)c1cc(-c2ccoc2)ccc1OCCc1cccc(F)c1`, the selectivity ratio was 1 (HepG2; 3 (unit not given); reference: CC50 glucose over CC50 galactose).
For `C#CCNC(=O)[C@H]1NC(=O)[C@H]2NC(=O)[C@H](NC(=O)[C@@H]3NC(=O)[C@H](CC(N)=O)NC(=O)[C@H](NC(=O)[C@@H](CC(C)C)NC)[C@H](O)c4ccc(c(Cl)c4)Oc4cc3cc(c4O[C@@H]3O[C@H](CO)[C@@H](O)[C@H](O)[C@H]3O[C@H]3C[C@](C)(N)[C@H](O)[C@H](C)O3)Oc3ccc(cc3Cl)[C@H]2O)c2ccc(O)c(c2)-c2c(O)cc(O)cc21`, the hemolysis was < 5% (sheep erythrocytes; 512 µg/mL, 37 °C; reference: Triton X-100).
`N=C(N)NCCC[C@H](NC(=O)CN)C(=O)N[C@@H](Cc1c[nH]c2ccccc12)C(=O)N[C@@H](CCCNC(=N)N)C(=O)N[C@@H](Cc1c[nH]c2ccccc12)C(=O)N[C@@H](Cc1c[nH]c2ccccc12)C(=O)N[C@@H](Cc1c[nH]c2ccccc12)C(=O)N[C@@H](CCCNC(=N)N)C(=O)N[C@@H](Cc1c[nH]c2ccccc12)C(=O)N[C@@H](CCCNC(=N)N)C(=O)N[C@@H](Cc1c[nH]c2ccccc12)C(N)=O` — result for “minimal haemolytic concentration”: 8 µM (mouse red blood cells).
With `CNC(=O)C[C@H](Cc1ccccc1)NC(=O)[C@@H](Cc1ccc(Cl)cc1Cl)NC(=O)[C@H](N)Cc1ccccc1C#N` the viability was 0.999 and 0.95 and 1.06 (Huh-7-ACE2; CellTiter-Glo; 0.781 µM, 48 h, unit not given; reference: DMSO).
For `O=c1n(CCNCCOS(=O)(=O)c2ccccc2)c(=O)n(S(=O)(=O)c2ccccc2)c(=O)n1S(=O)(=O)c1ccccc1`, the IC50 was 2.48 mg/L (HUVEC; cell growth or viability, MTT; 72 h).
With `C[C@@H](O)[C@@H]1NC(=O)[C@@H](NC(=O)CCOCCOCCOCCOCCNC(=O)c2ccc(NN)nc2)CSSC[C@@H](C(=O)O)NC(=O)[C@H](Cc2c[nH]cn2)NC(=O)[C@H](CO)NC(=O)[C@H](Cc2ccccc2)NC(=O)[C@@H]2CCCN2C(=O)[C@H](CO)NC(=O)[C@@H]2CCCN2C1=O` [technetium-99m labelled] the tissue uptake was 0.11 ± 0.03 %ID/g (mouse HCT-116 xenograft, lung; intravenous, 37 MBq, postmortem after imaging).
For `O=C(C=Cc1ccc(O)c(O)c1)OC1CC(O)(C(=O)O)CC(OC(=O)C=Cc2ccc(O)c(O)c2)C1O` (centres unmarked), the cytotoxicity was 25% (Vero E6; 200 µM).
For `O=C1NC2(CC2)COc2ncc(F)cc2[C@H]2COCCN2c2ccn3ncc1c3n2`, “organ-to-body weight ratio” read 3.52 ± 0.243% (Sprague-Dawley rat, female, liver; oral, 2.5 mg/kg/day, 4 weeks, end of treatment).
`Cc1ccc(OCCN(C)C)cc1C(=O)N[C@H](C)c1cc(-c2cncs2)nc2ccccc12` gave a viability of 0% and 1.73% (Vero E6; 125 µM).
`CC(C)C[C@H](NC(=O)[C@H](CCCNC(=N)N)NC(=O)[C@H](CCCNC(=N)N)NC(=O)[C@@H](N)Cc1c[nH]c2ccccc12)C(=O)N[C@@H](Cc1c[nH]c2ccccc12)C(=O)N[C@@H](Cc1c[nH]c2ccccc12)C(=O)N[C@@H](Cc1c[nH]c2ccccc12)C(=O)N[C@@H](CCCNC(=N)N)C(=O)N[C@@H](Cc1c[nH]c2ccccc12)C(=O)O` — result for “lowest cytotoxic concentration”: 256 µg/mL (HEK-293T cells; CCK-8; 4 h, 37 °C, 10% cell death).
`CCn1ccc(-c2cc([C@@H](C)NC(=O)c3cc(OC[C@@H]4CCCN4C)ccc3C)c3ccccc3n2)n1` has a viability of 1.43% and 0.716% and 1.19% (Vero E6; 125 µM).
Under “minimal haemolytic concentration”, `N=C(N)NCCC[C@H](NC(=O)[C@H](Cc1c[nH]c2ccccc12)NC(=O)[C@H](CCCNC(=N)N)NC(=O)[C@H](Cc1c[nH]c2ccccc12)NC(=O)[C@H](Cc1c[nH]c2ccccc12)NC(=O)[C@H](Cc1c[nH]c2ccccc12)NC(=O)[C@H](CCCNC(=N)N)NC(=O)[C@H](Cc1c[nH]c2ccccc12)NC(=O)[C@@H](N)CCCNC(=N)N)C(N)=O` is recorded as > 128 µM (mouse red blood cells).
`Cc1ccc(N2C[C@@H]3C[C@H]2CN3C)cc1C(=O)N[C@H](C)c1cc(-c2cnn(C)c2)nc2ccccc12` has a viability of 94.8% (African green monkey cells; 7.812 µM).
`CC(=O)NCCCC[C@@H]1NC(=O)[C@H](Cc2c[nH]c3c(C)cccc23)NC(=O)[C@H]([C@@H](C)O)NC(=O)[C@H](CC(N)=O)NC(=O)[C@@H](NC(C)=O)C(C)(C)SSC(C)(C)[C@@H](C(=O)N[C@@H](Cc2ccc(OCCN)cc2)C(=O)N[C@@H](Cc2ccc3ccccc3c2)C(=O)NC2(C(=O)N[C@@H](CCC(=O)O)C(=O)N[C@@H](CC(N)=O)C(=O)N[C@@H](Cc3cccnc3)C(=O)N(C)CC(N)=O)CCOCC2)NC1=O` has an induction of < 5% (human hepatocytes; inducer, measured: CYP1A2, CYP2B6, CYP3A4 mRNA; 90 µM; reference: positive control).
`N=C(N)NCCC[C@H](NC(=O)[C@H](Cc1c[nH]c2ccccc12)NC(=O)[C@H](CCCNC(=N)N)NC(=O)[C@H](Cc1c[nH]c2ccccc12)NC(=O)[C@H](Cc1c[nH]c2ccccc12)NC(=O)[C@H](Cc1c[nH]c2ccccc12)NC(=O)[C@H](CCCNC(=N)N)NC(=O)[C@H](Cc1c[nH]c2ccccc12)NC(=O)[C@H](CCCNC(=N)N)NC(=O)CN)C(N)=O` — result for “minimal haemolytic concentration”: > 128 µM (mouse red blood cells).
`Cc1ccc(OC[C@@H]2CCCN2C)cc1C(=O)N[C@H](C)c1cc(-c2cnn(C)c2)nc2ccccc12` has a viability of 1.51% (African green monkey cells; 250 µM).
The cytostasis of `CCCCCC1=C(NCC)C(=O)C(C/C=C(\C)CCC=C(C)C)=C(O)C1=O` is reported as 20% (human peripheral lymphocytes; 40 µg/mL, 3 h, with S9, harvest 27 h).
`CCCCNC(=O)c1ccc2nc(CC)c(N(C)Cc3ccc(OC)cc3)n2c1` has a cytotoxicity of 10% (bEnd.5; sulforhodamine B; 100 µM, 72 h, serum-free medium).
